Assay results from different studies.
Numbered parts are unrelated; each lists some results of a single study. Changes are numbered by the printed parent chain.

Block 1 — method: RNA Bind-n-Seq; molecule type: RNA; matrix: in vitro; tested at: 200 nM; setting: whole 134-nt RNA, ends assumed; added: 150 mM KCl; baseline: input library; direction: higher = stronger binding
Target: Fragile X messenger ribonucleoprotein 1, C-terminal low-complexity region (Fmr1, Mus musculus, UniProt P35922)
Shared flanks, not repeated: GGGAGUUCUACAGUCCGACGAUC … UGGAAUUCUCGGGUGUCAAGG
Strand | log2 enrichment
UCAAGUCCUGUGCUACACAUCGUAUGUACCGAAUCGGGGCCCGGGCCCGGCCCGGAAAGUAUUAUGUUACGCCGUUCGGAUCUGCACUUC | -0.73
GUCCUGUGCUACACAUCGUAUGUACCGAAUCGGGUUUUUGGGAAAGGGUUUUUUUGGGAAAGUAUUAUGUUACGCCGUUCGGAUCUGCAC | -0.0797
CUCAAGUCCUGUGCUACACAUCGUAUGUACCGAAUCGGGCCGGCCGGCCGGGGAAAGUAUUAUGUUACGCCGUUCGGAUCUGCACUUCCA | 0.0121
AGUCCUGUGCUACACAUCGUAUGUACCGAAUCGGUUUGGUUUUUUUGGAAAAAAAGGAAAGUAUUAUGUUACGCCGUUCGGAUCUGCACU | -1
GUCCUGUGCUACACAUCGUAUGUACCGAAUCGGGUUUUUUUGGGUGGGUUUUUUUGGGAAAGUAUUAUGUUACGCCGUUCGGAUCUGCAC | 0.484
UAACUUUAGAGGAGGAUCUGAUGGAUAUGGCAGUGGACGUGGAUUUGGGGAUGGCUAUAAUGGGUAUGGAGGAGAACCUGGAGGUGGCAA | 0.251
GUCCUGUGCUACACAUCGUAUGUACCGAAUCGGCCCCCCGGGCCCCCCGGGCCCCCCGGAAAGUAUUAUGUUACGCCGUUCGGAUCUGCA | -0.264

Block 2 — method: protein-binding microarray; molecule type: double-stranded DNA, one strand shown; matrix: in vitro; tested at: 250 nM; setting: 60-bp whole probe; added: salmon DNA 0.4 mg/ml; baseline: random background probes; direction: higher = stronger binding; shared flanks, not repeated: GCCTAGCAC … GTCTTGATTCGCTTGACGCTGCTG
Target: Interferon regulatory factor 7, full length, phosphomimetic (IRF7, Homo sapiens, UniProt Q92985, residues 1-503, S101K/S471D/S472D/S475D/S476D/S477D/S483D/S484D/S487D)
Sequence of UniProt Q92985 (whole entry, unmodified, looked up): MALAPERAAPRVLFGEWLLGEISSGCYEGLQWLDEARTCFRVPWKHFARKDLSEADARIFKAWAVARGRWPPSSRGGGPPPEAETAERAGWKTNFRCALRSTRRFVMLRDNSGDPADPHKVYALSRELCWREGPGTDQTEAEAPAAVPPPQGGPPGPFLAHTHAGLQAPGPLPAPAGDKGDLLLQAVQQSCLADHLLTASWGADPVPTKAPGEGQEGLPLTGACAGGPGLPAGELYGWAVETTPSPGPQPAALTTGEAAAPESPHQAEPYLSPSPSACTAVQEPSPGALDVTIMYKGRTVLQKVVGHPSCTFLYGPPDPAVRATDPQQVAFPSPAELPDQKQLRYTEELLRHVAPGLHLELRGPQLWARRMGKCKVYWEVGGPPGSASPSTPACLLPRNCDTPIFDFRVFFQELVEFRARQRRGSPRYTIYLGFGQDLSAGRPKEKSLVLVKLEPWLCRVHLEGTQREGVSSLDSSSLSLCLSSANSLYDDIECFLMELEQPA
Strand | log fluorescence
GCAAAAATGATTGGTTGAACGTGCTAG | -0.353 z-score
TTAGGACTGGACTATTGGTTAGTGCTA | -0.336 z-score
GCACTGTGCCTGCTGCCCTTGTGCTAG | -0.702 z-score
TTATATATCGGGACTGGATTAGTGCTA | 0.288 z-score
GCCGGACTGGGGTTTCGGGACGTGCTA | 1 z-score
TTAGGTATCGGTAGCGGTTAGTGCTAG | 0.134 z-score

Block 3 — target: CCNB2, cyclin fold, Cln2 fusion (human); method: yeast growth competition, sequencing; matrix: yeast; setting: strong parent motif; baseline: not given; direction: higher = stronger binding
Starting sequence: MICAL3 docking peptide (human); LQLRRQLSFSEDS
Variant | normalised enrichment score
S10G | 3.18
R4M | 0.71
L3R | 0.536
R5N | 0.4
L3I | 4.03

Mixed results
Substance | target | assay | system | setting | scale | measurement | value
PhoQ, residues 284 288 289 292 302 303 SLKLQV | PhoP, residues 12 14 15 18 19 VHSCL (Escherichia coli, UniProt P23836) | Sort-seq, measured: YFP reporter | E. coli | PhoQ-PhoP variant library, added: 10 µM Mg2+ | baseline: high Mg2+ state, higher = stronger signaling | fold induction | 6.45

For quick reference, copied from above (block 3):
Variant | normalised enrichment score
L3I | 4.03
